# Results collected from several papers.
# Numbers after ± are the reported error.
SMILES,test,test system,setting,terminal half-life [h]
Cc1cc(-c2nccc3c2ccn3CC(=O)Nc2ccc(-c3cnccn3)cn2)ccn1,,"human, plasma","oral, 5 mg once daily, day 1, geometric mean",9.77
Cc1[nH]c(/C=C2\C(=O)Nc3ccc(F)cc32)c(C)c1C(=O)N[C@H]1CCN(C(=O)N(C)C)C1,,"human patients, plasma","oral, 100 mg single dose, added: everolimus 5 mg",4.74 ± 1.44
C[C@@]1(c2cc(NC(=O)c3ccc(C#N)cn3)ccc2F)C=CSC(N)=N1,,"elderly humans, both sexes, plasma","oral, 30 mg single dose, mean",15.7
COc1nnc2ccc(N3CCC(c4ccc(OCCN5CCN(C)C(=O)[C@H]5C)cc4)CC3)nn12,,"human, plasma","oral, 10 mg once daily, single dose, monotherapy",4.6
Cc1cc(Nc2ccc(S(F)(F)(F)(F)F)cc2)n2nc(C(C)(F)F)nc2n1,LC-MS/MS,"human vivax malaria patients, plasma","oral, 400 mg, mean",115
CN(CC#N)C(=O)C[C@H](Nc1nc2ccccc2[nH]1)c1cccc(C(F)(F)F)c1,,human,"intravenous infusion, 1.5 mg/kg, 1 mg/mL formulation",3.6 ± 0.03
Cc1cc(-c2nnc(N)nc2-c2ccc(F)cc2)cc(Cl)n1,,"human patients, plasma","oral, 75 mg nanosuspension once daily, multiple doses, arithmetic mean",11.2
CN1C(=O)[C@@H](NC(=O)c2nnc(Cc3ccccc3)[nH]2)COc2cccnc21,,"healthy human, fasted, plasma","oral, 200 mg single dose, geometric mean",6.34

# Excerpt of the above:
SMILES,test,test system,setting,terminal half-life [h]
Cc1cc(-c2nccc3c2ccn3CC(=O)Nc2ccc(-c3cnccn3)cn2)ccn1,,"human, plasma","oral, 5 mg once daily, day 1, geometric mean",9.77
